# Measurements of several laboratories.
# Each numbered part is a random draw from the data of one study; scales do not carry over between parts.

# Block 1
# Target: Sal-like protein 4, full length isoform A (SALL4, Homo sapiens, UniProt Q9UJQ4, residues 1-1053)
# Sequence of UniProt Q9UJQ4 (whole entry, looked up): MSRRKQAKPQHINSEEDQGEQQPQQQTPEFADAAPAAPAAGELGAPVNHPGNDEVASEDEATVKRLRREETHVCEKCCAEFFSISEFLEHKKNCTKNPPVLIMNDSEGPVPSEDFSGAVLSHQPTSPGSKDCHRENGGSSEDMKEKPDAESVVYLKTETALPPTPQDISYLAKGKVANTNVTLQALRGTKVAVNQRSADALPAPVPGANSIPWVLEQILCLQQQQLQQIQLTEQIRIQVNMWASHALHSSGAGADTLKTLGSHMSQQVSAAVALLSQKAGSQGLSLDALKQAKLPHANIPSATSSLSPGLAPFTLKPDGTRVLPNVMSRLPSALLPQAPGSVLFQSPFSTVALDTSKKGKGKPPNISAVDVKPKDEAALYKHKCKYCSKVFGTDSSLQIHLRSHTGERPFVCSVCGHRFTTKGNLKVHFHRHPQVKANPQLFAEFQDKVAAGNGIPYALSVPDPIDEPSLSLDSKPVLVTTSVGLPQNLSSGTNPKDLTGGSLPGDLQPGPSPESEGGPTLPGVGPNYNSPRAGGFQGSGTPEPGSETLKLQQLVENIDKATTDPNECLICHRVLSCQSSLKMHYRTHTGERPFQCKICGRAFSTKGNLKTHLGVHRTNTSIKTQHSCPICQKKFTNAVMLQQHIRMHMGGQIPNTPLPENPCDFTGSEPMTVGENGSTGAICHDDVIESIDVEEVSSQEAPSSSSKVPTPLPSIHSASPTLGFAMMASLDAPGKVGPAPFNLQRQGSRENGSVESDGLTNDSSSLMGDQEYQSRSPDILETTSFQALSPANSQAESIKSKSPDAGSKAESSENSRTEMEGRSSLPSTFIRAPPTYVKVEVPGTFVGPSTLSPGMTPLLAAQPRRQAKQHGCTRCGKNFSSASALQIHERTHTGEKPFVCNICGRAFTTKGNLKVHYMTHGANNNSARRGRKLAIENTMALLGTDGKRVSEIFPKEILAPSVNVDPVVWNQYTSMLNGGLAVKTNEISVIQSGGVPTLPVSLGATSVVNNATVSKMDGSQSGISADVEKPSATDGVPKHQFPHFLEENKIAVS
# Method: universal PBM
# Molecule type: double-stranded DNA, one strand shown
# Sample: in vitro
# Concentration: 600 nM
# Setting: 8-mer, flanks averaged, mean of replicates
# Reading: higher = stronger binding
Strand,E-score
CTCATGCC,-0.184
CAGTAAGA,0.13
GCACACGC,-0.193
AGATTCTC,-0.0528
CATTACGA,0.132
GAAAAACA,0.157
CCCAGAGG,-0.347
AACATACT,0.147

# Block 2
# Target: Histone acetyltransferase KAT6A, winged helix 1, GST fusion (KAT6A, Homo sapiens, UniProt Q92794, residues 1-85)
# Method: protein binding microarray
# Molecule type: double-stranded DNA, one strand shown
# Sample: in vitro
# Concentration: not given
# Setting: 8-mer, flanks averaged, mean of 2 arrays, mostly near background
# Baseline: not given
# Reading: higher = stronger binding
# Residues (chain): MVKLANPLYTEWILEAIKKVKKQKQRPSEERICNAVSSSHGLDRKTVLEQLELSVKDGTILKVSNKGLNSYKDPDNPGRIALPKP
Strand,E-score
TATGAAGA,-0.188
ACGCATGG,0.207
CGTAGGAC,0.149
GCAGGAGA,-0.037
ACGGCATC,0.367
AAGGTATT,0.000705
AAACAGAG,-0.185
CACACTGG,-0.142
CGCTATTA,0.17

# Block 3
# Target: PABPC1L2, full length, GST fusion (mouse, UniProt A0ABA7IW68)
# Method: RNAcompete
# Molecule type: RNA
# Sample: in vitro
# Concentration: 20 nM
# Setting: 7-mer, probes averaged, single round
# Baseline: mean of 7-mers
# Reading: higher = stronger binding
# Target sequence (chain): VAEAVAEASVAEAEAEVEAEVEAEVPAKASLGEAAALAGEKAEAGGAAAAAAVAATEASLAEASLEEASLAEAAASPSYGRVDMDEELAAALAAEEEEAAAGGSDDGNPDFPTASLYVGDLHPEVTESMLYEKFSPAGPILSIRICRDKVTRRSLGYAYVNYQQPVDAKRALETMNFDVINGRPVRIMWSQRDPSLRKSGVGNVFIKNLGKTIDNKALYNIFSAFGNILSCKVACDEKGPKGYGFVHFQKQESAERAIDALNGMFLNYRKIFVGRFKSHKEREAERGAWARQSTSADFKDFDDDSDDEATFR
Strand,7-mer Z-score
UGUUGUG,-0.267
GAGUAUA,0.0696
CCGAUAU,-0.177
CGGAAGU,0.1
AAACCUU,0.16
UCUACCA,-0.144
AUACUCC,-0.135
UGUGUCC,-0.347

# Single results of other studies
Molecule,target,test,test system,conditions,scale,measurement,result
"PhoQ, residues 284 288 289 292 302 303 SSLVEF","PhoP, residues 12 14 15 18 19 TPLRH (Escherichia coli, UniProt P23836)","Sort-seq, item: YFP reporter",E. coli,"PhoQ-PhoP variant library, together with: 10 µM Mg2+","baseline: high Mg2+ state, higher = stronger signaling",fold induction,1.04
